Published values of several laboratories.
Every numbered part comes from another study and shows a few of its results, in no order.
Chain of UniProt P53350 (whole entry, looked up): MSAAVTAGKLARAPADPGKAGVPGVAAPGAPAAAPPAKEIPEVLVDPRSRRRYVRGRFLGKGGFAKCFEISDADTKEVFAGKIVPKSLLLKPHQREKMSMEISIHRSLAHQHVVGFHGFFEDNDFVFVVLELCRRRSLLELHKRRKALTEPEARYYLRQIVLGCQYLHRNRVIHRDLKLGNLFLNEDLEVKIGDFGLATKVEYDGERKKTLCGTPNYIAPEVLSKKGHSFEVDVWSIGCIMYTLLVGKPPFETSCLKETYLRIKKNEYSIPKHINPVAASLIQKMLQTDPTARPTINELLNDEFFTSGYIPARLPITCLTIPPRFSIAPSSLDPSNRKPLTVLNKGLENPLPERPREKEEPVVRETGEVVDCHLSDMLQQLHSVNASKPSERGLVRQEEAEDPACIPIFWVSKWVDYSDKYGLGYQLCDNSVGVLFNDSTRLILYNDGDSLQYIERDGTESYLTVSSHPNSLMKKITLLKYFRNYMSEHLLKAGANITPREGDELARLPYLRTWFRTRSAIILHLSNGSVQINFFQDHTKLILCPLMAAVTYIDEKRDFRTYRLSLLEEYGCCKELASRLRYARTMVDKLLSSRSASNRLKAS
Chain of UniProt Q9BYP7 (whole entry, looked up): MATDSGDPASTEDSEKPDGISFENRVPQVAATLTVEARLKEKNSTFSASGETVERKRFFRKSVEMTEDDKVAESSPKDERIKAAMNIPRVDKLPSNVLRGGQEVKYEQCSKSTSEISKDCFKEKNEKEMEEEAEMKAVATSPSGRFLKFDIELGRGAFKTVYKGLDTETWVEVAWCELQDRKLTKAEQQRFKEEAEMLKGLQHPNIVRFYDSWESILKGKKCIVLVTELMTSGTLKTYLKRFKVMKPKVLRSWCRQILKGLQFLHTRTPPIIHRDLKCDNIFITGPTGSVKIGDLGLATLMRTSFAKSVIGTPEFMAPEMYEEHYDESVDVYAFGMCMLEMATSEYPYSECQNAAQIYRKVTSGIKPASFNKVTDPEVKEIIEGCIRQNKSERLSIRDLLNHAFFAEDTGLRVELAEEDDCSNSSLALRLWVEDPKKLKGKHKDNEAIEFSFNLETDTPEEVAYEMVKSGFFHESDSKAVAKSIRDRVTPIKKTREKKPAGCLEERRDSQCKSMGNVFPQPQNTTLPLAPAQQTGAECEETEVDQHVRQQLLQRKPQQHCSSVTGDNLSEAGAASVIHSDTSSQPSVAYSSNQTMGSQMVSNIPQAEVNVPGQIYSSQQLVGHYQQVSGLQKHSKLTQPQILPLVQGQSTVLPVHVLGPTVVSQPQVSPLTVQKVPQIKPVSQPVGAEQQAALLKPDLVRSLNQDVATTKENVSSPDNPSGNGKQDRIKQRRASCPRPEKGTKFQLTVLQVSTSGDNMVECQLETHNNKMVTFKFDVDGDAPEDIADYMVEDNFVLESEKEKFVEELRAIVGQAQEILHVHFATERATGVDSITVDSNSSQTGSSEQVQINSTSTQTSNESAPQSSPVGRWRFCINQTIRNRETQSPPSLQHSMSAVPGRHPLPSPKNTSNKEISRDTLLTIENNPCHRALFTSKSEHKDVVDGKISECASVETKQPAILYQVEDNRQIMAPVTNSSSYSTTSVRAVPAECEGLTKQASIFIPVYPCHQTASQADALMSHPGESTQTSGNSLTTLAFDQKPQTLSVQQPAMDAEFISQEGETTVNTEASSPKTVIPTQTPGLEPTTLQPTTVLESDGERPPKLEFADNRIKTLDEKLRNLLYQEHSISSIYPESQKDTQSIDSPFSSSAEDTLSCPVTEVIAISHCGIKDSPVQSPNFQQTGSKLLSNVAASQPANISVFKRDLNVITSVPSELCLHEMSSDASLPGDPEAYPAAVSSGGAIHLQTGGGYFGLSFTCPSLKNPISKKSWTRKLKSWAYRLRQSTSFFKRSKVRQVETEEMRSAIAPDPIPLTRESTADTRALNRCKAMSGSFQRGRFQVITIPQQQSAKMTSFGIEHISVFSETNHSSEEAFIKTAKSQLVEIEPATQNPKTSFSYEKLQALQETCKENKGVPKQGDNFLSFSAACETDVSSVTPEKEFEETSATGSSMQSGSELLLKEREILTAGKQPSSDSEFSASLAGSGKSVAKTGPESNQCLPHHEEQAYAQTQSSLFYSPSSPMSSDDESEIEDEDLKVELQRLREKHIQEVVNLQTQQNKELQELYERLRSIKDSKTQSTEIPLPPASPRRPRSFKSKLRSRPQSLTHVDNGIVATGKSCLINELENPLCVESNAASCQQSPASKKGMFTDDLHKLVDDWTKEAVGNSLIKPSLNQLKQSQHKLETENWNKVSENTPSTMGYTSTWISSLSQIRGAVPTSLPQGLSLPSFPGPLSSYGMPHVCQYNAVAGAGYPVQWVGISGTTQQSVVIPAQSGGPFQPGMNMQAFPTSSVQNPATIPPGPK
Chain of UniProt Q09013 (whole entry, looked up): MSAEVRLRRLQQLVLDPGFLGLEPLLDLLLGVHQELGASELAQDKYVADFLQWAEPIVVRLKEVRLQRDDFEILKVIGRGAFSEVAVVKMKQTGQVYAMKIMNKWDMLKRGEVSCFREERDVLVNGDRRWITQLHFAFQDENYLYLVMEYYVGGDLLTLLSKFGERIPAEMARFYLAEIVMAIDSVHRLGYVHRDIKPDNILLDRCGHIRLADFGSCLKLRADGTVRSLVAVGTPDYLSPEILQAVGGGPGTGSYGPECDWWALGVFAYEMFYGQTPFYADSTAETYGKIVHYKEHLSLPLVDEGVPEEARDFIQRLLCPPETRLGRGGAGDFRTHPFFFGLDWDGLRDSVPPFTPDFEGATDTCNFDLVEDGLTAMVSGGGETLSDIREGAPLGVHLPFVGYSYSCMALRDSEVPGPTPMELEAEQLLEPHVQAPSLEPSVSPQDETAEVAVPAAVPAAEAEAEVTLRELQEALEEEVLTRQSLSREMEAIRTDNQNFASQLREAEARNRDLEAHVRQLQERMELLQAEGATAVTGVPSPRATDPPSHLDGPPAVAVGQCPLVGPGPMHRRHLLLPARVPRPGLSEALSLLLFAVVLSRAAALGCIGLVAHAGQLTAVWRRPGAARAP
Chain of UniProt P33981 (whole entry, looked up): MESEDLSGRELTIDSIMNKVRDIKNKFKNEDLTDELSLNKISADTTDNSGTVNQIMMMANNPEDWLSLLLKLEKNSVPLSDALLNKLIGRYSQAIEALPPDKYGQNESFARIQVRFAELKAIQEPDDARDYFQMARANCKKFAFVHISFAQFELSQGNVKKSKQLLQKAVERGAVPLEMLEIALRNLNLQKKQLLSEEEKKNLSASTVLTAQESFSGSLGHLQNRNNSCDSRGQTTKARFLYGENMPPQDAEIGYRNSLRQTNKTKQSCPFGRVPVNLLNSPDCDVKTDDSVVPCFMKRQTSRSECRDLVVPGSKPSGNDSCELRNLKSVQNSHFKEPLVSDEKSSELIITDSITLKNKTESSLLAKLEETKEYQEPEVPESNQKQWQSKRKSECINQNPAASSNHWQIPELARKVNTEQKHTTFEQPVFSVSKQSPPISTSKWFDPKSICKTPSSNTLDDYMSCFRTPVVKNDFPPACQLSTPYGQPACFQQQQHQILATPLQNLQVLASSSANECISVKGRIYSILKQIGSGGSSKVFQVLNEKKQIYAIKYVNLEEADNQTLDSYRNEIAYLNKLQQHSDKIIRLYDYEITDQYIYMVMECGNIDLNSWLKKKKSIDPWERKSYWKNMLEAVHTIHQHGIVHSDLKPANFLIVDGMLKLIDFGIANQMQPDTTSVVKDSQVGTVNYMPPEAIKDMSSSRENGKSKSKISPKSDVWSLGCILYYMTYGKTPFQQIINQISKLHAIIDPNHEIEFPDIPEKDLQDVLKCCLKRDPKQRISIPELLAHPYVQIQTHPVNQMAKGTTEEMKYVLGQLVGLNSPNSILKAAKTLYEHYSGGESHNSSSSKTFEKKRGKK
Chain of UniProt P30291 (whole entry, looked up): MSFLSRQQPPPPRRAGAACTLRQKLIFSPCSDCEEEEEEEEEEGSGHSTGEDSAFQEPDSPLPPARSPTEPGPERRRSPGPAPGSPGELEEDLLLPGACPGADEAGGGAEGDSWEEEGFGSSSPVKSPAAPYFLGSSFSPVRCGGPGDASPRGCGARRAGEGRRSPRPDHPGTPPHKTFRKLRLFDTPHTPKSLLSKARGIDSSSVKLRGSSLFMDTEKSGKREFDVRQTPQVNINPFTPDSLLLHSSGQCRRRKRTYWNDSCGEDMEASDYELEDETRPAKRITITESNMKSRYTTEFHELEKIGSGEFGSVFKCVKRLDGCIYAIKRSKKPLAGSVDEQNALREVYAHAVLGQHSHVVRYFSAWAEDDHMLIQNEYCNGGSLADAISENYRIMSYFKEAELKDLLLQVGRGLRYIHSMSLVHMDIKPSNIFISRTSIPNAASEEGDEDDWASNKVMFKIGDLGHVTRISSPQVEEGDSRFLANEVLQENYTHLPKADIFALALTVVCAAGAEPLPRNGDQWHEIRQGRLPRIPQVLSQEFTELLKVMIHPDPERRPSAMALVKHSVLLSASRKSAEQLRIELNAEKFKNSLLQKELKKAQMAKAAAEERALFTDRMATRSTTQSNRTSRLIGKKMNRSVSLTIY

Set 1
SMILES: CN([C@@H]1CCc2c(CC(=O)O)c3ccccc3n2C1)S(=O)(=O)c1ccc(F)cc1
Read-out: cell-free assay
Method: competition with immobilised ligand
Tested at: 1 µM
Quantity: remaining binding
PLK1 (Homo sapiens, UniProt P53350): 98%
MELK (Homo sapiens, UniProt Q14680): 93%
LIM domain kinase 2 (LIMK2, Homo sapiens, UniProt P53671): 100%
Ribosomal protein S6 kinase alpha-2, N-terminal kinase domain (RPS6KA2, Homo sapiens, UniProt Q15349): 84%
TTK (Homo sapiens, UniProt P33981): 100%
WEE1 (Homo sapiens, UniProt P30291): 100%
NEK3 (Homo sapiens, UniProt P51956): 93%
SBK1 (Homo sapiens, UniProt Q52WX2): 100%
MAP3K4 (Homo sapiens, UniProt Q9Y6R4): 87%
WNK3 (Homo sapiens, UniProt Q9BYP7): 86%
MAP2K4 (Homo sapiens, UniProt P45985): 100%
DMPK (Homo sapiens, UniProt Q09013): 100%

Set 2
Cell line: A-375
Tested at: 100 µM
Time: 36 h
Quantity: viability
CN1C[C@@H]2C[C@H]1CN2c1cc2c(cc1F)c(=O)c(C(=O)O)cn2C1CC1: 83.4%
CC(C)C[C@H](NC(=O)[C@@H](O)[C@H](N)Cc1ccccc1)C(=O)O: 103%
O=[N+]([O-])c1ccc(O)c2ncccc12: 18.3%
COc1cc([C@@H]2c3cc4c(cc3[C@@H](O[C@@H]3O[C@@H]5CO[C@@H](C)O[C@H]5[C@H](O)[C@H]3O)[C@H]3COC(=O)[C@H]23)OCO4)cc(OC)c1O: 97.7%
CCN(CC)C(=O)/C(C#N)=C/c1cc(O)c(O)c([N+](=O)[O-])c1: 81.2%
CCN(CC)Cc1cc(Nc2ccnc3cc(Cl)ccc23)ccc1O: 14.8%
COc1cc2c(cc1O)CC[C@@H]1[C@@H]2CC[C@]2(C)[C@@H](O)CC[C@@H]12: 46.5%
COC(=O)C1=C(C)NC(C)=C(C(=O)O[C@@H]2CCCN(Cc3ccccc3)C2)[C@@H]1c1cccc([N+](=O)[O-])c1 (racemic): 16.2%
Cc1cc(C(C#N)c2ccc(Cl)cc2)c(Cl)cc1NC(=O)c1cc(I)cc(I)c1O (stereo not shown): 18.3%
CC(C)=CCC/C(C)=C/CC/C(C)=C/CC/C(C)=C/CC1=C(C)C(=O)c2ccccc2C1=O: 51.7%

Set 3
Target: Tyrosine-protein kinase Yes (YES1, Homo sapiens, UniProt P07947)
Chain of UniProt P07947 (whole entry, looked up): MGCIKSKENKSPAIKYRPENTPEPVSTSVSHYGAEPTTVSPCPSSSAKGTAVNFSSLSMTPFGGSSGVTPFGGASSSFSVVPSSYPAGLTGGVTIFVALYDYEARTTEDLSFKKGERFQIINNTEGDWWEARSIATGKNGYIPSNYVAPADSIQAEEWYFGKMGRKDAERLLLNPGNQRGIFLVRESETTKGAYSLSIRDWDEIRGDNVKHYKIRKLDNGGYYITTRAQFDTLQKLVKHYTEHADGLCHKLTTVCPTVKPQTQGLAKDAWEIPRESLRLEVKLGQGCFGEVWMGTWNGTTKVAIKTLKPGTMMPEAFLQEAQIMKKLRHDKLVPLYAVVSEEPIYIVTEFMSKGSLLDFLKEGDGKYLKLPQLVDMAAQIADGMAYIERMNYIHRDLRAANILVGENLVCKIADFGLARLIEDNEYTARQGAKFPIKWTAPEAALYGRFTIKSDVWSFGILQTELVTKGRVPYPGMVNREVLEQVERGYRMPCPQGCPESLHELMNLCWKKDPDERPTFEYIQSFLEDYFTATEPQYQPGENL
Read-out: enzyme activity
Action: inhibitor
Tested at: 0.5 µM
Relative to: control
Quantity: remaining activity
COc1cc2ncnc(Nc3ccc(Oc4ccccc4)cc3)c2cc1OC: 7.96%
NCCNc1ncc(C(N)=O)c(Nc2cccc(C(F)(F)F)c2)n1: 84.7%
O=C(O)c1ccc2c3c1cccc3c(=O)n1c3ccccc3nc21: 96.6%
Cc1nc(-c2ccccc2)c(-c2ccncc2)o1: 101%
COc1ccc(C(=O)Nc2sc3c(c2C(N)=O)CCCC3)cc1OC: 88.3%
O=C(CCCc1ccc(-c2ccccc2F)cc1)Nc1ccc(O)cc1: 110%
O=c1c2ccccc2[nH]c(=S)n1CCN1CCC(=C(c2ccc(F)cc2)c2ccc(F)cc2)CC1: 99.2%
COc1ccc(CNC(=O)Nc2ncc([N+](=O)[O-])s2)cc1: 96.1%
Cn1c2ccccc2c2c3c(c4c5ccccc5n(CCC#N)c4c21)CNC3=O: 68.7%
CO[C@H]1C[C@@H]2CC[C@@H](C)[C@@](O)(O2)C(=O)C(=O)N2CCCC[C@H]2C(=O)O[C@H]([C@H](C)C[C@@H]2CC[C@@H](O)[C@H](OC)C2)CC(=O)[C@H](C)/C=C(\C)[C@@H](O)[C@@H](OC)C(=O)[C@H](C)C[C@H](C)/C=C/C=C/C=C/1C: 101%
O=C1NC(=O)C(c2cn(CCCn3ccnc3)c3ccccc23)=C1Nc1ccccc1: 89.3%
C#Cc1cccc(Nc2ncnc3cc(OCCOC)c(OCCOC)cc23)c1: 68.3%
Cc1cccc(-c2[nH]c(C(C)(C)C)nc2-c2ccc3c(c2)OCO3)n1: 97%
CC(C)[C@H](CO)Nc1nc(Nc2cc(N)cc(Cl)c2)c2ncn(C(C)C)c2n1: 7.03%
O=C1NC(=O)C(c2cn(CCCO)c3ncccc23)=C1c1cnccn1: 80.1%

Set 4
Compound: CO[C@@H]1[C@H](N(C)C(=O)c2ccccc2)C[C@H]2O[C@]1(C)n1c3ccccc3c3c4c(c5c6ccccc6n2c5c31)C(=O)NC4
Action: inhibitor
Tested at: 1 µM
Quantity: inhibition
TAOK2 (Homo sapiens, UniProt Q9UL54); enzyme activity: 27%
ACVR1B (Homo sapiens, UniProt P36896); enzyme activity: 14%
Ribosomal protein S6 kinase alpha-3, C-terminal kinase domain (RPS6KA3, Homo sapiens, UniProt P51812): 7%
FYN (Homo sapiens, UniProt P06241); enzyme activity: 60%
DCLK2 (Homo sapiens, UniProt Q8N568); enzyme activity: 0%
CLK3 (Homo sapiens, UniProt P49761); enzyme activity: 9%
NEK7 (Homo sapiens, UniProt Q8TDX7); enzyme activity: 0%
FGFR4 (Homo sapiens, UniProt P22455); enzyme activity: 0%
DYRK1A (Homo sapiens, UniProt Q13627); enzyme activity: 96%

Some of these lines once more (set 1):
TTK (Homo sapiens, UniProt P33981): 100%
WEE1 (Homo sapiens, UniProt P30291): 100%
NEK3 (Homo sapiens, UniProt P51956): 93%
